Experimental data from different studies.
Lines come from different studies, so protocols differ. Values joined by “and” are separate records of one study, mostly repeats; a detail may differ. Numbers after ± are the reported error.
TNIK: TRAF2 and NCK-interacting protein kinase (TNIK, Homo sapiens, UniProt Q9UKE5)
Sequence of UniProt Q9UKE5 (whole entry, looked up): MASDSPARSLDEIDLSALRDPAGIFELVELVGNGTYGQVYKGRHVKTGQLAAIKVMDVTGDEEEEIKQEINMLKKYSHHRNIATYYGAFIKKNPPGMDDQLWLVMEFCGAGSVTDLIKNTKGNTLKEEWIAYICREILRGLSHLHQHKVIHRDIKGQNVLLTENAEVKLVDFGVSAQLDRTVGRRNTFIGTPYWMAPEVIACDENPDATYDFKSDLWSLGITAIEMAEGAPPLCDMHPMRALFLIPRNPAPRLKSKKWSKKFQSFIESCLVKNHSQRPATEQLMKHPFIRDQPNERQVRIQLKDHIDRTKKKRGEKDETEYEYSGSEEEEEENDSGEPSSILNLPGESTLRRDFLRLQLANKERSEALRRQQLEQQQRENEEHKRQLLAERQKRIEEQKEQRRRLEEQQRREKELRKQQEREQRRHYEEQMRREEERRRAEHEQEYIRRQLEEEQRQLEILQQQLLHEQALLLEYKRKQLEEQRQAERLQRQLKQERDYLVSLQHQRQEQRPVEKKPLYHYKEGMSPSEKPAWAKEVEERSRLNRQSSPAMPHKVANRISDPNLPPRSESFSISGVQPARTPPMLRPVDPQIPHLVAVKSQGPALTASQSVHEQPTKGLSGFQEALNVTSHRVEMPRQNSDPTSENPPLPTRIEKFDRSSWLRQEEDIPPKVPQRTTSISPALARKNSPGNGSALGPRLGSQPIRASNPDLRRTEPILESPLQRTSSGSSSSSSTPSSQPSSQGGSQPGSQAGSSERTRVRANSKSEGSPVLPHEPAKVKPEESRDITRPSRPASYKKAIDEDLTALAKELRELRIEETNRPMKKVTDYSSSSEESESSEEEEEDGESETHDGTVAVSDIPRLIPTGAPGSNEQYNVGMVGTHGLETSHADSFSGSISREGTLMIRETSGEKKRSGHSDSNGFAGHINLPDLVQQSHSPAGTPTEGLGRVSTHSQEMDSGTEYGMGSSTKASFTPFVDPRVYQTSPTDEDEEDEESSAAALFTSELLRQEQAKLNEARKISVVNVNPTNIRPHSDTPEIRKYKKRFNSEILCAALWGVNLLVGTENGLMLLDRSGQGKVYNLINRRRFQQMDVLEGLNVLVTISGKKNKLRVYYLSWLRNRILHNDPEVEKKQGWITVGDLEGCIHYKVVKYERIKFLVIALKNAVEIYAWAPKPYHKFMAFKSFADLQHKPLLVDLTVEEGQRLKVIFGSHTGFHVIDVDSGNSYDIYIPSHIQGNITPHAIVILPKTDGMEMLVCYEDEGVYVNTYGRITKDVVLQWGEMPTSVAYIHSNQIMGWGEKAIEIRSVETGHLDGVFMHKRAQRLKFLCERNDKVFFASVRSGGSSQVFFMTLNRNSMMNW
HSP90AB1: Heat shock protein HSP 90-beta (HSP90AB1, Homo sapiens, UniProt P08238)
Sequence of UniProt Q9NNX6 (whole entry, looked up): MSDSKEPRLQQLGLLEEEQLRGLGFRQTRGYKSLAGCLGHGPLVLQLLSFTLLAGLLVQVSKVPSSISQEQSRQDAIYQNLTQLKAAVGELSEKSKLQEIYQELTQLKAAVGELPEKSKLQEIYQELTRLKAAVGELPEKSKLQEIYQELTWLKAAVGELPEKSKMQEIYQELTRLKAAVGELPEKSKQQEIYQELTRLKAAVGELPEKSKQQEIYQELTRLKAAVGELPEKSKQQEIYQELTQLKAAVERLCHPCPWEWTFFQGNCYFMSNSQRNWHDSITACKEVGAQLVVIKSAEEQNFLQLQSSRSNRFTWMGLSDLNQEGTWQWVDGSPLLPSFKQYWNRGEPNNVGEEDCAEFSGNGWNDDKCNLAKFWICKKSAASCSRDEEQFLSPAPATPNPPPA
Sequence of UniProt P33913 (whole entry, unmodified, looked up): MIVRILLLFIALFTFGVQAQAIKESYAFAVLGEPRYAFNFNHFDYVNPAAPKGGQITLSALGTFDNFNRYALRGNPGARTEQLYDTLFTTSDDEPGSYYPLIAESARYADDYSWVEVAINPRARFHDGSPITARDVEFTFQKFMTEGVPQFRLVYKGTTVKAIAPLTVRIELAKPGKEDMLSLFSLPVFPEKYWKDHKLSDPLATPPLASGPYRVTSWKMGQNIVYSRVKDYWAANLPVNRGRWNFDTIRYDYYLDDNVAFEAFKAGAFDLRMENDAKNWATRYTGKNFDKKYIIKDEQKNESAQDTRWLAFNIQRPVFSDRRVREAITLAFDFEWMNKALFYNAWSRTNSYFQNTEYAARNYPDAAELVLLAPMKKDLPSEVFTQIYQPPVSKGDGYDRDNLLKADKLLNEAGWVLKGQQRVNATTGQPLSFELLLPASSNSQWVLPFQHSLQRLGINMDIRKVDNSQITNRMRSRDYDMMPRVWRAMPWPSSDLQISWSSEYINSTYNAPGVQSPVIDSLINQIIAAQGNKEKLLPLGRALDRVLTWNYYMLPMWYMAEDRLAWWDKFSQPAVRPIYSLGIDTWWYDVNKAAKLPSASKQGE
Sequence of UniProt P08238 (whole entry, looked up): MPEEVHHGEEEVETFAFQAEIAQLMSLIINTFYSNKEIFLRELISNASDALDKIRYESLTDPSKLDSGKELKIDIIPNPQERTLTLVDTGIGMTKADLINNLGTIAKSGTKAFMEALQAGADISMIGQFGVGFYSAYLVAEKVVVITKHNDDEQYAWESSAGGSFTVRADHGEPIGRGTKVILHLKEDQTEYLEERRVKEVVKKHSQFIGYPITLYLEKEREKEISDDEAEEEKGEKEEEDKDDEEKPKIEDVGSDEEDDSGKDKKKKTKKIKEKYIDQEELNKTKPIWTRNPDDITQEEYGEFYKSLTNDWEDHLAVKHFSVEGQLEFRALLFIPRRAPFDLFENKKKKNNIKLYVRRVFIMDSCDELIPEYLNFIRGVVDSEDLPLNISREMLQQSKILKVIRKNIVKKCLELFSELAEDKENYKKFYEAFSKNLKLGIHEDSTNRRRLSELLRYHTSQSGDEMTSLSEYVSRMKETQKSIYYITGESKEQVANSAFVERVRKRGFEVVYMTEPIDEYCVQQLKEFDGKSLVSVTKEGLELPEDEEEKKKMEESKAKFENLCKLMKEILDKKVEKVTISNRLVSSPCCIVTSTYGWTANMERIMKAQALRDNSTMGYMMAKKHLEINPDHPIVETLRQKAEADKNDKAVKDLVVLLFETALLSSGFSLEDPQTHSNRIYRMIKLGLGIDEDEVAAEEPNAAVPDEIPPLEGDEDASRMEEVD
Sequence of UniProt P46734 (whole entry, looked up): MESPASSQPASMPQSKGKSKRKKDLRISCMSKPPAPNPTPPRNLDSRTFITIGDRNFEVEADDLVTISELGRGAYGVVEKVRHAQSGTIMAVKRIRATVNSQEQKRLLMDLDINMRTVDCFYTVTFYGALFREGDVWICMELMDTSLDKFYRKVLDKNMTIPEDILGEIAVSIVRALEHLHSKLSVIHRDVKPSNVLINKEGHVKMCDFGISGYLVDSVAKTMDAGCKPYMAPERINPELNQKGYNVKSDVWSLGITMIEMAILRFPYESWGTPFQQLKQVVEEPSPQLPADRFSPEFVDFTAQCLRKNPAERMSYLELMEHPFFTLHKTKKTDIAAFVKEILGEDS
Sequence of UniProt P42684 (whole entry, looked up): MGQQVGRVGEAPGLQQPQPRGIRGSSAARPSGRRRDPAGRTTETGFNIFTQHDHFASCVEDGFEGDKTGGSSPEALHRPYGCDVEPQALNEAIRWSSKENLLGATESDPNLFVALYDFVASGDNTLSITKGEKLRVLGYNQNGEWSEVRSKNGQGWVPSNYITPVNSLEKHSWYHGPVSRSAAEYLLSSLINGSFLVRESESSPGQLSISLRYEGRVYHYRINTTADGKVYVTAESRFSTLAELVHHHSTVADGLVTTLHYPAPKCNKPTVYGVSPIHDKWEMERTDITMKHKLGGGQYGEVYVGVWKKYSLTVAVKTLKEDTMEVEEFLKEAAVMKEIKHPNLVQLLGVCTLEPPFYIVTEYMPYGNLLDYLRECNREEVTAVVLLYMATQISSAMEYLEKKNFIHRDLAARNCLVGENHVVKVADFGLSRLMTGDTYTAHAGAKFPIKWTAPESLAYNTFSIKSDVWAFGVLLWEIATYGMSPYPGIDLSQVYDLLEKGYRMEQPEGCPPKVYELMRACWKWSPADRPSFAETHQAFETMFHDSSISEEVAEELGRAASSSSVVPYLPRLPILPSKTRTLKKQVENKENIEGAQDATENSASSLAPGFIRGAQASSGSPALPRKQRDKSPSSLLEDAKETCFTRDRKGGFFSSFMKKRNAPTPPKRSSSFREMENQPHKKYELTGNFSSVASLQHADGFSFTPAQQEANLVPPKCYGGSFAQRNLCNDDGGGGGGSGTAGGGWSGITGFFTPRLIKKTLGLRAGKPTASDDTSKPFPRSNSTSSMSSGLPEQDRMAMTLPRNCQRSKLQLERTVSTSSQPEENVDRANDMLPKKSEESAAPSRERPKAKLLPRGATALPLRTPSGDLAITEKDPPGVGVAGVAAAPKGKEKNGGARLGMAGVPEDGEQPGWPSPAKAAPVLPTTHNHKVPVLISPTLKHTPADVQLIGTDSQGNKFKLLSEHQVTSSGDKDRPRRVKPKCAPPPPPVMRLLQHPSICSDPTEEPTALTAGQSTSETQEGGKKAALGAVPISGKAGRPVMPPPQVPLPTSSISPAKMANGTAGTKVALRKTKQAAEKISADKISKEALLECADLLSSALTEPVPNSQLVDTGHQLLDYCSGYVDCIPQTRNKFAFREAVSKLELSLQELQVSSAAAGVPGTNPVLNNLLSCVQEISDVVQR
Sequence of UniProt P15692 (whole entry, looked up): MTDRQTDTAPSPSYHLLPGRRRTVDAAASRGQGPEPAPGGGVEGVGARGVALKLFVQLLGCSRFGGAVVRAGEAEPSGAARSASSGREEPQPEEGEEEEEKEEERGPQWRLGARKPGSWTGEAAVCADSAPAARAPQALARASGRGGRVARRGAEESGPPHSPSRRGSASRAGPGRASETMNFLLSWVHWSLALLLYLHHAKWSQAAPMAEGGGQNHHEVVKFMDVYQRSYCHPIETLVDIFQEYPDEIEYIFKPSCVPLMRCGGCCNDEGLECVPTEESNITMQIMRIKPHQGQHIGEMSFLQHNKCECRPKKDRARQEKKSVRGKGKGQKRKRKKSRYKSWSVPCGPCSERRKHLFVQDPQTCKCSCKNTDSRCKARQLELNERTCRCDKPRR

`C=C1NC(=O)CNC(=O)[C@H](Cc2ccccc2)NC(=O)[C@H](Cc2ccc(O)cc2)NC(=O)CNC(=O)[C@H](CCCCN)NC(=O)[C@H](CC(=O)O)NC(=O)[C@H](Cc2c[nH]c3ccccc23)NC(=O)CNC(=O)[C@H](Cc2c[nH]cn2)NC(=O)[C@H](Cc2c[nH]c3ccccc23)NC(=O)[C@H](Cc2c[nH]c3ccccc23)NC(=O)c2ccc(-c3nc(C(=O)OC)cs3)nc2-c2csc1n2` has a Kd of 23 nM (TNIK; binding, SPR).
For `CC[C@H](C)[C@H](NC(=O)[C@H](Cc1ccccc1)NC(=O)[C@H](CCC(=O)O)NC(=O)[C@H](CC(=O)O)NC(=O)[C@H](CC(=O)O)NC(=O)[C@H](CC(=O)O)NC(=O)[C@H](CC(=O)O)NC(=O)[C@H](CC(=O)O)NC(=O)[C@H](C)NC(=O)[C@H](C)NC(=O)[C@H](CC(=O)O)NC(=O)[C@H](CCC(=O)O)NC(=O)[C@@H](N)CC(=O)O)C(=O)N[C@@H](Cc1ccc(O)cc1)C(=O)N1CCC[C@H]1C(=O)N[C@@H](CC(N)=O)C(=O)N[C@@H](CO)C(=O)N[C@@H](Cc1ccc(O)cc1)C(=O)O`, the Kd was 5700 nM (RNA-binding protein RRM4 (RRM4, Mycosarcoma maydis, UniProt A0A0D1DWZ5); binding, isothermal titration calorimetry; Ustilago maydis; pH 8.0, 25 °C, together with: MLLE domain 100 µM).
The Kd of `CC[C@H](C)[C@@H]1NC(=O)[C@H](CC(=O)O)NC(=O)[C@@H](NC(=O)[C@H](CCC(=O)O)NC(=O)[C@H](CC(N)=O)NC(=O)CNC(=O)CN)CSSC[C@@H](C(=O)N[C@@H](Cc2ccc(F)cc2)C(=O)N[C@@H](CCC(=O)O)C(=O)NCC(=O)N[C@@H](C)C(=O)O)NC(=O)[C@H](CCC(=O)O)NC(=O)[C@H](Cc2c[nH]c3ccccc23)NC(=O)[C@H](CCC(=O)O)NC(=O)[C@H](Cc2c[nH]c3ccccc23)NC(=O)[C@H](CCSC)NC(=O)[C@H](CCCNC(=N)N)NC(=O)[C@H](C)NC1=O` is reported as 152000 nM (VEGFA (Homo sapiens, UniProt P15692); binding).
The Kd of `CC[C@H](C)[C@H](NC(=O)[C@H](CC(=O)O)NC(=O)[C@H](CCCNC(=N)N)NC(=O)[C@H](C)NC(=O)c1ccc2c(c1)C(=O)OC21c2ccc(N(C)C)cc2Oc2cc(N(C)C)ccc21)C(=O)N[C@@H](Cc1c[nH]cn1)C(=O)N[C@@H](Cc1c[nH]cn1)C(=O)N[C@H](C(=O)N[C@@H](CC(=O)O)C(=O)N[C@@H](Cc1ccc(O)cc1)C(=O)N[C@@H](Cc1ccc(OP(=O)(O)O)cc1)C(=O)N[C@@H](CCCCN)C(=O)N[C@@H](CCCCN)C(=O)N[C@H](C(=O)N[C@H](C(=O)N[C@@H](CC(N)=O)C(=O)NCC(=O)N[C@@H](CCCNC(=N)N)C(=O)N[C@@H](CC(=O)O)C(=O)O)[C@@H](C)O)[C@@H](C)O)[C@@H](C)CC` is reported as 1320 nM (Tyrosine-protein kinase ABL2, SH2 domain (ABL2, Homo sapiens, UniProt P42684); binding).
`CCCC[C@@H]1NC(=O)[C@H](Cc2ccc(O)cc2)NC(=O)[C@@H]2CCCN2C(=O)[C@H](CC(=O)O)NC(=O)[C@H](C)NC(=O)[C@H](Cc2ccccc2)NC(=O)[C@@H]2CSCCC(=O)N3CN(CN(C3)C(=O)CCSC[C@@H](C(=O)N[C@@H](C)C(N)=O)NC1=O)C(=O)CCSC[C@H](NC(C)=O)C(=O)N[C@@H](CC(C)(C)C)C(=O)N1CCC[C@H]1C(=O)N[C@@H](CCC(=O)O)C(=O)N[C@H](CCCCNC(=O)CCc1cn(CCOCCOCCOCCN(CCOCCOCCOCCC(=O)N[C@H]3CSCCC(=O)N4CN5CN(C4)C(=O)CCSC[C@H](NC(=O)[C@@H](CC(=O)O)NC(=O)[C@H](Cc4cccc6ccccc46)NC(=O)[C@@H]4CCCN4C3=O)C(=O)N[C@@H](CCSC)C(=O)N[C@@H](CCCCNC(=N)N)C(=O)N[C@@H](CC(=O)O)C(=O)N[C@@H](Cc3c[nH]c4ccccc34)C(=O)N[C@@H](CO)C(=O)N[C@@H]([C@@H](C)O)C(=O)N3CCC[C@H]3C(=O)N3C[C@H](O)C[C@H]3C(=O)N[C@@H](Cc3c[nH]c4ccccc34)C(=O)N[C@H](C(N)=O)CSCCC5=O)CCOCCOCCOCCn3cc(CCC(=O)NCCCC[C@H]4NC(=O)[C@H](CCC(=O)O)NC(=O)[C@@H]5CCCN5C(=O)[C@H](CC(C)(C)C)NC(=O)[C@@H](NC(C)=O)CSCCC(=O)N5CN6CN(C5)C(=O)CCSC[C@H](NC(=O)[C@H](Cc5ccc(O)cc5)NC(=O)[C@@H]5CCCN5C4=O)C(=O)N[C@@H](Cc4ccccc4)C(=O)N[C@@H](C)C(=O)N[C@@H](CC(=O)O)C(=O)N4CCC[C@H]4C(=O)N[C@@H](Cc4ccc(O)cc4)C(=O)N[C@@H](CCCC)C(=O)N[C@H](C(=O)N[C@@H](C)C(N)=O)CSCCC6=O)nn3)nn1)C(=O)N1CCC[C@H]1C(=O)N[C@@H](Cc1ccc(O)cc1)C(=O)N2` has a Kd of 5.1 nM (Nectin-4 (Homo sapiens, UniProt Q96NY8); binding, SPR).
`Cc1ncc([N+](=O)[O-])n1CC(O)Cn1cc(CO[C@]2(C(=O)O)C[C@H](O)[C@@H](NC(=O)CF)[C@H]([C@H](O)[C@H](O)CNC(=O)c3ccc(Oc4ccccc4)cc3)O2)nn1` (some centres unmarked) has a Kd of 2220 nM (CD22 (Homo sapiens, UniProt P20273); binding, ITC).
With `CCCc1cc2cc(-n3nc(C(F)F)c4c3CC(C)(C)CC4=O)cc(N3CCC(O)CC3)c2c(=O)[nH]1` the Kd was 118 nM (HSP90AB1; fluorescence polarization; 24 h, 4 °C, together with: FITC-geldanamycin tracer).
`CC(=O)NCC(=O)N[C@@H](CO)C(=O)N[C@@H](CS)C(=O)N[C@@H](CCCNC(=N)N)C(=O)N[C@@H](CCCCN)C(=O)N[C@@H](CCCNC(=N)N)C(=O)N[C@@H](CC(N)=O)C(=O)N[C@@H](CCCNC(=N)N)C(=O)N[C@@H](CO)C(=O)N1CCC[C@H]1C(=O)N[C@@H](CCC(=O)O)C(=O)N[C@@H](CCCNC(=N)N)C(N)=O` has a Kd of 14600 nM (WDR5 (Homo sapiens, UniProt P61964); binding, isothermal titration calorimetry; pH 7.0, 20 °C).
With `CC[C@H](C)[C@@H]1NC(=O)[C@@H](C)NC(=O)[C@H](CCC(=O)N[C@@H](CCCCN)C(N)=O)NC(=O)[C@@H](C)NC(=O)[C@@H](C)NC(=O)[C@H](Cc2c[nH]c3ccccc23)NC(=O)[C@H](Cc2ccc(O)cc2)NC(=O)[C@H](CCCNC(=N)N)NC(=O)[C@H](Cc2ccc(F)cc2)NC1=O` the Kd was 400 nM (Lysine--tRNA ligase (KARS1, Homo sapiens, UniProt Q15046); binding).
The Kd of `NCc1cn([C@@H]2[C@@H](OCCn3cc(COCCOCCOCCn4cc(-c5cc(OCCOCCO)c(C#Cc6cc(OCCOCCO)c(C#Cc7cc(OCCOCCO)c(-c8cn(CCOCCOCCOCc9cn(CCO[C@H]%10O[C@H](CO)[C@@H](O)[C@H](O)[C@@H]%10n%10cc(CN)nn%10)nn9)nn8)cc7OCCOCCO)cc6OCCOCCO)cc5OCCOCCO)nn4)nn3)O[C@H](CO)[C@@H](O)[C@@H]2O)nn1` is reported as 24500 nM and 31700 nM (CD209 antigen (CD209, Homo sapiens, UniProt Q9NNX6); binding).
`CC(C)C[C@H](NC(=O)[C@H](CCCNC(=N)N)NC(=O)[C@H](CC(C)C)NC(=O)[C@H](CO)NC(=S)Nc1ccc2c(c1)C(=O)OC21c2ccc(O)cc2Oc2cc(O)ccc21)C(=O)N[C@@H](CCCCN)C(=O)N[C@@H](CS)C(=O)NCC(=O)N[C@@H](CCP(=O)(O)O)C(=O)NCC(=O)N1CCC[C@H]1C(=O)N[C@H](C(=O)N[C@@H](Cc1c[nH]c2ccccc12)C(=O)N[C@@H](CC(C)C)C(=O)N[C@H](C(=O)N1CCC[C@H]1C(=O)N[C@@H](CCCNC(=N)N)C(=O)O)C(C)C)C(C)C` has a Kd of 39600 nM (14-3-3 protein beta/alpha (Homo sapiens, UniProt P31946); binding, fluorescence anisotropy; pH 7.5, FITC-labelled phosphopeptide titration).
`O=C1NC2(CC2)COc2ncc(F)cc2[C@H]2COCCN2c2ccn3ncc1c3n2` — result for “organ-to-body weight ratio”: 0.343 ± 0.076% (Sprague-Dawley rat, female, spleen; oral, 10 mg/kg/day, 4 weeks, end of treatment).
`CCCc1cc2cc(-n3nc(C)c4c3CC3(CCC3)CC4=O)cc(N3CCC(O)CC3)c2c(=O)[nH]1` gave a Kd of 318 nM (HSP90AB1; fluorescence polarization; 24 h, 4 °C, together with: FITC-geldanamycin tracer).
`CC[C@H](C)[C@H](NC(=O)[C@H](C)NC(=O)CNC(=O)[C@@H](NC(=O)[C@@H](NC(=O)[C@H](CO)NC(=O)[C@H](CO)NC(=O)[C@@H](NC(=O)[C@H](CC(N)=O)NC(=O)[C@@H]1CCCN1C(=O)[C@H](Cc1c[nH]cn1)NC(=O)[C@H](Cc1c[nH]c2ccccc12)NC(=O)[C@@H](NC(=O)[C@H](CCCCN)NC(=O)[C@@H](NC(=O)[C@@H](NC(=O)[C@H](Cc1ccccc1)NC(=O)[C@H](CCCNC(=N)N)NC(=O)[C@@H](N)C(C)C)[C@@H](C)CC)[C@@H](C)O)[C@@H](C)CC)[C@@H](C)CC)C(C)C)[C@@H](C)O)C(=O)N[C@@H](CS)C(=O)N[C@@H](CC(C)C)C(=O)N[C@@H](CC(=O)O)C(=O)N[C@H](C(=O)N[C@@H](CC(C)C)C(=O)N[C@@H](CCCCN)C(=O)O)[C@@H](C)CC` gave a Kd of 750 ± 50 nM (Diablo IAP-binding mitochondrial protein (DIABLO, Homo sapiens, UniProt Q9NR28); binding, microscale thermophoresis; 30 min, pH 7.4, 37 °C).
The Kd of `C=C1NC(=O)c2csc(n2)[C@H]([C@@H](C)O)NC(=O)[C@H](C)NC(=O)[C@H]([C@@H](C)CC)NC(=O)[C@H](CCCNC(=N)N)NC(=O)CNC(=O)[C@H](CCCNC(=N)N)NC(=O)[C@H]([C@@H](C)O)NC(=O)[C@H](CCCNC(=N)N)NC(=O)[C@H]([C@@H](C)CC)NC(=O)[C@H]([C@@H](C)O)NC(=O)[C@H](Cc2c[nH]c3ccccc23)NC(=O)c2ccc(-c3nc(C(=O)OC)cs3)nc2-c2csc1n2` is reported as 1.24 nM (TNIK; binding, SPR).
With `CSCC[C@H](NC=O)C(=O)N[C@@H](CCCNC(=N)N)C(=O)N[C@H](C(=O)NCC(=O)N[C@@H](CC(N)=O)C(=O)N[C@@H](C)C(=O)N[C@@H](CC(N)=O)C(=O)NCC(=O)NCC(=O)N[C@@H](CCCCNC(=S)Nc1ccc2c(c1)C(=O)OC21c2ccc(O)cc2Oc2cc(O)ccc21)C(=O)O)[C@@H](C)O` the Kd was 490 nM and ~490 nM (Uncharacterized protein YejA (yejA, Escherichia coli, UniProt P33913, S499A); binding, fluorescence polarisation; YejA variant S481A).
The Kd of `O=C(N[C@@H]1c2ccccc2C[C@H]1N1CCCC1)c1ccc(-c2ccnc3[nH]ccc23)nc1` is reported as 470 nM (MAP2K3 (Homo sapiens, UniProt P46734); binding, competition with immobilised ligand).

Repeated from above:
The Kd of `NCc1cn([C@@H]2[C@@H](OCCn3cc(COCCOCCOCCn4cc(-c5cc(OCCOCCO)c(C#Cc6cc(OCCOCCO)c(C#Cc7cc(OCCOCCO)c(-c8cn(CCOCCOCCOCc9cn(CCO[C@H]%10O[C@H](CO)[C@@H](O)[C@H](O)[C@@H]%10n%10cc(CN)nn%10)nn9)nn8)cc7OCCOCCO)cc6OCCOCCO)cc5OCCOCCO)nn4)nn3)O[C@H](CO)[C@@H](O)[C@@H]2O)nn1` is reported as 24500 nM and 31700 nM (CD209 antigen (CD209, Homo sapiens, UniProt Q9NNX6); binding).
The Kd of `CC[C@H](C)[C@@H]1NC(=O)[C@H](CC(=O)O)NC(=O)[C@@H](NC(=O)[C@H](CCC(=O)O)NC(=O)[C@H](CC(N)=O)NC(=O)CNC(=O)CN)CSSC[C@@H](C(=O)N[C@@H](Cc2ccc(F)cc2)C(=O)N[C@@H](CCC(=O)O)C(=O)NCC(=O)N[C@@H](C)C(=O)O)NC(=O)[C@H](CCC(=O)O)NC(=O)[C@H](Cc2c[nH]c3ccccc23)NC(=O)[C@H](CCC(=O)O)NC(=O)[C@H](Cc2c[nH]c3ccccc23)NC(=O)[C@H](CCSC)NC(=O)[C@H](CCCNC(=N)N)NC(=O)[C@H](C)NC1=O` is reported as 152000 nM (VEGFA (Homo sapiens, UniProt P15692); binding).
